{"data": "Published values pooled from the literature"}
{"Compound": "N#Cc1ccc(C(c2ccc(C#N)cc2)n2cncn2)cc1", "system": "human", "conditions": "150 mg", "quantity": "Tmax at steady state", "result": "1.9 h"}
{"Compound": "COc1cc(C(=O)NC2CCN(C)CC2)c(F)cc1Nc1ncc(C(F)(F)F)c(Oc2cccc3c2C(=O)N(C)C3)n1", "system": "human, Japanese, plasma", "conditions": "oral, 200 mg once daily multiple dose, median", "quantity": "Tmax steady state", "result": "2.95 h"}
{"Compound": "COc1ncc(-c2nc3c(n2C(C)C)[C@H](c2ccc(Cl)cc2)N(c2cc(Cl)cn(C)c2=O)C3=O)c(OC)n1", "assay": "LC-MS/MS, noncompartmental", "system": "human, plasma", "conditions": "oral, 2 mg, C1D8, low-dose, median", "quantity": "Tmax", "result": "2.9 h"}
{"Compound": "Cc1cc(-c2nnc(N)nc2-c2ccc(F)cc2)cc(Cl)n1", "system": "human patients, plasma", "conditions": "oral, 100 mg nanosuspension, single dose, median", "quantity": "Tmax", "result": "1 h"}
{"Compound": "Cc1cc(Nc2ncnc3ccc(NC4=NC(C)(CO)CO4)cc23)ccc1Oc1ccn2ncnc2c1 (centres unmarked)", "system": "human, plasma", "conditions": "oral, 300 mg tucatinib single dose, day 1, tucatinib alone", "quantity": "Tmax (median)", "result": "2 h"}
{"Compound": "Cc1cc(C)c(CNC(=O)c2cc(Cl)c3c(c2C)O[C@@](C)([C@H]2CC[C@H](N(C)C)CC2)O3)c(=O)[nH]1", "system": "human, plasma", "conditions": "oral, 200 mg, cycle 1 day 15", "quantity": "Tmax total drug", "result": "3.79 h"}
{"Compound": "C[C@@H](Oc1ccc(S(C)(=O)=O)cc1C(=O)N1C[C@@H]2C[C@]2(c2cc(C(F)(F)F)on2)C1)C(F)(F)F", "system": "healthy human volunteers", "conditions": "oral, 10 mg single, median", "how to read": "relative to: fasted, fed earlier", "quantity": "Tmax difference", "result": "1 h"}
{"Compound": "COc1nnc2ccc(N3CCC(c4ccc(OCCN5CCN(C)C(=O)[C@H]5C)cc4)CC3)nn12", "system": "human, plasma", "conditions": "oral, 2 mg once daily, single dose, monotherapy", "quantity": "Tmax", "result": "0.5 h"}
{"Compound": "Cc1cn(C(=O)c2c(-c3c(Cl)cc(Cl)cc3Cl)noc2C(C)(C)F)c2cccc(/C=C/C(=O)O)c12", "system": "human patients", "conditions": "250 mg bid, cycle 8 day 1", "quantity": "Tmax", "result": "2.25 h"}
{"Compound": "Cc1ccc(C)c(OCCCC(C)(C)C(=O)O)c1", "system": "human", "conditions": "dose not given, together with: lopinavir-ritonavir", "how to read": "relative to: without lopinavir-ritonavir", "quantity": "Tmax change", "result": "no effect"}
{"Compound": "O=C(Nc1cnccc1Cl)N1CCN(Cc2ccc3c(c2)OC(F)(F)O3)CC1", "system": "human healthy young women, plasma", "conditions": "oral, 100 mg once daily, day 1, multiple dose median", "quantity": "tmax", "result": "1 h"}
{"Compound": "C[C@@H](Cn1ccc(-c2ccc(C#N)c(Cl)c2)n1)NC(=O)c1cc([C@@H](C)O)[nH]n1", "system": "human, fasted, plasma", "conditions": "oral, 300 mg darolutamide tablet, median", "quantity": "tmax", "result": "1.75 h"}
{"Compound": "COc1cc(C(=O)NC2CCN(C)CC2)c(F)cc1Nc1ncc(C(F)(F)F)c(Oc2cccc3c2C(=O)N(C)C3)n1", "system": "human patients, plasma", "conditions": "oral, 300 mg once daily repeated, median", "quantity": "Tmax at steady state", "result": "2.5 h"}
{"Compound": "COc1cc(N2CCC(N3CCN(C)CC3)CC2)ccc1Nc1ncnc(Nc2ccccc2S(=O)(=O)C(C)C)n1", "system": "human, plasma", "conditions": "oral, 75 mg, day 1", "quantity": "tmax", "result": "3.63 h"}
{"Compound": "CN(C)N=Nc1[nH]cnc1C(N)=O", "system": "human patients, plasma", "conditions": "intravenous, 1000 mg/m^2 over 1 h, cycle 2 day 1, co-administered with another drug", "quantity": "Tmax (median)", "result": "1 h"}
{"Compound": "O=C(COc1ccc(Cl)cc1)NC12CC(c3nnc([C@H]4C[C@@H](OC(F)(F)F)C4)o3)(C1)C2", "system": "healthy human both sexes, plasma", "conditions": "oral, 260 mg once daily, day 1, median fasted", "quantity": "tmax", "result": "23.8 h"}
{"Compound": "CC#CC(=O)N1CC[C@@H](n2c(=O)n(-c3ccc(Oc4ccccc4)cc3)c3c(N)ncnc32)C1", "system": "human, fasted, plasma", "conditions": "oral, 300 mg twice daily, cycle 1 day 1", "quantity": "Tmax (median)", "result": "2.85 h"}
{"Compound": "COC(=O)N[C@@H](C)CNc1nccc(-c2cn(C(C)C)nc2-c2cc(Cl)cc(NS(C)(=O)=O)c2F)n1", "system": "humans, plasma", "conditions": "oral, day 1, single dose, together with: binimetinib", "quantity": "Tmax median", "result": "1.87 h"}
{"Compound": "Cc1nc2ccc(F)cc2n1-c1nc(N)c(F)c(Nc2ccc(C(F)(F)F)cc2)n1", "system": "human patients, plasma", "conditions": "oral, 300 mg twice weekly, cycles 1 and 2 pooled", "quantity": "Tmax median", "result": "4 h"}
{"Compound": "CCO", "system": "human, breath", "conditions": "0.5 g/kg, together with: 10 mg co-dosed drug", "quantity": "Tmax (median)", "result": "0.53 h"}
{"Compound": "C=CC(=O)Nc1cc(Nc2nccc(-c3cn(C)c4ccccc34)n2)c(OC)cc1N(C)CCN(C)C", "system": "human, plasma", "conditions": "oral, cycle 3 day 1, osimertinib plus chemotherapy, randomized arm", "quantity": "Tmax at steady state", "result": "4.5 h"}
{"Compound": "CCCOc1ccc(NC(=O)CN2CCN(C)CC2)cc1-c1nc(CC)c(CC)c(=O)[nH]1", "system": "human, fasting, plasma", "conditions": "oral, 10 mg, together with: alcohol 0.5 g/kg", "quantity": "Tmax (median)", "result": "1.5 h"}
{"Compound": "C=CC(=O)Nc1cc(Nc2nccc(-c3c[nH]c4ccccc34)n2)c(OC)cc1N(C)CCN(C)C", "system": "human, plasma", "conditions": "cycle 3 day 1, osimertinib plus chemotherapy, randomized arm", "quantity": "Tmax at steady state", "result": "4 h"}
{"Compound": "CC(=O)c1cc(C(=O)N[C@@H](C)Cn2ccc(-c3ccc(C#N)c(Cl)c3)n2)[nH]n1", "system": "human, fasted, plasma", "conditions": "oral, 300 mg darolutamide tablet, median", "quantity": "tmax", "result": "2 h"}
{"Compound": "N#Cc1ccc2c(c1)[C@H]1CCCN(C(=O)c3ccc4[nH]cnc4c3)[C@H]1C2", "system": "human, plasma", "conditions": "oral, 80 mg once daily, steady state, median", "quantity": "tmax steady state", "result": "0.834 h"}
{"Compound": "Cc1noc(C)c1-c1cc(C(O)(c2ccccn2)c2ccccn2)c2nc(C3CC3)[nH]c2c1", "system": "human male patients, fasted, plasma", "conditions": "oral, 3 mg once daily, cycle 1 day 8", "quantity": "Tmax", "result": "0.66 h"}
